Measurements pooled from the literature.
Each line is one published result; not all experiments were run side by side.
Organism: Enterococcus faecium

SMILES = CNC(CC(C)C)C(=O)NC1C(=O)NC(CC(N)=O)C(=O)NC2C(=O)NC3C(=O)NC(C(=O)NC(C(=O)NCCCNC(=N)N)c4cc(O)cc(O)c4-c4cc3ccc4O)C(O)c3ccc(c(Cl)c3)Oc3cc2cc(c3OC2OC(CO)C(O)C(O)C2OC2CC(C)(N)C(O)C(C)O2)Oc2ccc(cc2Cl)C1O (stereo not shown); test system = ATCC BAA-2317 VanA; setting = −NaH2PO4; MIC = 4 µg/mL
SMILES = CC(C)C[C@H](NC(=O)[C@H](CC(N)=O)NC(=O)[C@H](CCCNC(=N)N)NC(=O)[C@@H](CC(C)C)NC(=O)[C@H](Cc1ccc2ccccc2c1)NC(=O)[C@H](CC(=O)O)NC(=O)[C@H](CCCCN)NC(=O)[C@@H](CC(C)C)NC(=O)[C@H](CCCNC(=N)N)NC(=O)[C@H](CCC(N)=O)NC(=O)[C@@H](NC(=O)[C@@H](CC(C)C)NC(=O)[C@H](CCCNC(=N)N)NC(=O)[C@H](CCCCN)NC(=O)[C@H](Cc1ccc(C(F)(F)F)cc1)NC(=O)CN)C(C)C)C(=O)N[C@H](C(N)=O)C(C)C; test = broth microdilution; test system = ATCC 51559; MIC = 3.1 µM
SMILES = CN(C)c1cc(CN2CCOCC2)c(O)c2c1C[C@H]1C[C@H]3[C@H](N(C)C)C(O)=C(C(N)=O)C(=O)[C@@]3(O)C(O)=C1C2=O; test system = 494, Tet M and Tet L; MIC = 2 µg/mL
SMILES = CNC(CC(C)C)C(=O)NC1C(=O)NC(CC(N)=O)C(=O)NC2C(=O)NC3C(=O)NC(C(=O)NC(C(=O)NCCCNC(=N)N)c4cc(O)cc(O)c4-c4cc3ccc4O)C(O)c3ccc(c(Cl)c3)Oc3cc2cc(c3OC2OC(CO)C(O)C(O)C2OC2CC(C)(NCc3ccc(-c4ccc(Cl)cc4)cc3)C(O)C(C)O2)Oc2ccc(cc2Cl)C1O (stereo not shown); test system = ATCC BAA-2317 VanA; setting = together with: +NaH2PO4 100 µg/mL; MIC = 0.3 µg/mL
SMILES = C=C(NC(=O)C(=C)NC(=O)c1csc(C2=NC3c4csc(n4)C4NC(=O)c5csc(n5)C(C(C)(O)C(C)O)NC(=O)C5CSC(=N5)C(=CC)NC(=O)C(C(C)O)NC(=O)c5csc(n5)C3(CC2)NC(=O)C(C)NC(=O)C(=C)NC(=O)C(=C)NC(=O)C(C(C)CC)NC2C=Cc3c(C(C)O)cc(nc3C2O)C(=O)OC4C)n1)C(N)=O (stereo not shown); test = broth microdilution; test system = ATCC 12952 VRE; setting = 18 h, 37 °C; MIC = 0.008 µg/mL
SMILES = CCn1cc[n+](CC)[c]1[Au-][Cl]; test = broth dilution; test system = DSM 20477; setting = 20 h, 37 °C; MIC = 1.4 µM
SMILES = CN(C)c1cc(CNCc2ccncc2)c(O)c2c1C[C@H]1C[C@H]3[C@H](N(C)C)C(O)=C(C(N)=O)C(=O)[C@@]3(O)C(O)=C1C2=O; test system = 494, Tet M and Tet L; MIC = 4 µg/mL
SMILES = CNC(CC(C)C)C(=O)NC1C(=O)NC(CC(N)=O)C(=O)NC2C(=O)NC3C(=O)NC(C(=O)NC(C(=O)NCCCCCCNC(=N)N)c4cc(O)cc(O)c4-c4cc3ccc4O)C(O)c3ccc(c(Cl)c3)Oc3cc2cc(c3OC2OC(CO)C(O)C(O)C2OC2CC(C)(N)C(O)C(C)O2)Oc2ccc(cc2Cl)C1O (stereo not shown); test = broth microdilution; test system = ATCC BAA-2317 VanA; MIC = 4 µg/mL
SMILES = CN(C)Cc1cc(N(C)C)c2c(c1O)C(=O)C1=C(O)[C@]3(O)C(=O)C(C(N)=O)=C(O)[C@@H](N(C)C)[C@@H]3C[C@@H]1C2; test system = 494, Tet M and Tet L; MIC = 1 µg/mL
SMILES = CCN(CC)CCCN1/C(=C/c2cc[n+](C)c3ccccc23)Sc2ccccc21; test = microbial growth, broth dilution; test system = ATCC700221; MIC = 2 µg/mL

A few entries again:
SMILES = CN(C)Cc1cc(N(C)C)c2c(c1O)C(=O)C1=C(O)[C@]3(O)C(=O)C(C(N)=O)=C(O)[C@@H](N(C)C)[C@@H]3C[C@@H]1C2; test system = 494, Tet M and Tet L; MIC = 1 µg/mL
